Results collected from several papers.
Compare with care: the assays were run in different laboratories. Values joined by “and” are separate records of one study, mostly repeats; a detail may differ.
Target: Serine/threonine-protein kinase pim-1 (PIM1, Homo sapiens, UniProt P11309)
UniProt P11309, sequence (whole entry, unmodified, looked up): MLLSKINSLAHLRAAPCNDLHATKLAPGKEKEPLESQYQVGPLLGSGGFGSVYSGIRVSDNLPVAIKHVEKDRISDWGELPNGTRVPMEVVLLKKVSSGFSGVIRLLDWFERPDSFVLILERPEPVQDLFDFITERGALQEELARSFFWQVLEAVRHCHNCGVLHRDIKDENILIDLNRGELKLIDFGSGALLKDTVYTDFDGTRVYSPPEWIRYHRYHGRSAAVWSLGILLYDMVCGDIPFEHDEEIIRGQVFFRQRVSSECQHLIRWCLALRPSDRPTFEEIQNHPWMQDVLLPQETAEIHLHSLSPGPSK

Cc1cccc(O[C@H]2CCC[C@@H](C(C)CNCc3ccncc3)C2)c1 (relative stereo) — inhibition (enzyme activity, inhibitor; 1 µM): 0%
Fc1cncc(-c2ccc3[nH]c4ncnc(N[C@H]5CC[C@H](N6CCOCC6)CC5)c4c3c2)c1 — inhibition (enzyme activity, radiometric; 1 µM, added: ATP): 98%
CNS(=O)(=O)Nc1nccc(Cc2c(C)c3ccc(Oc4ncccc4F)cc3oc2=O)c1F — remaining binding (binding, competition with immobilised ligand; 10 µM): 91%
CCC1C(COc2nccc3cc(C(N)=O)c(OC)cc23)NC(=O)C1F (centres unmarked) — inhibition (enzyme activity, inhibitor, radiometric; 1 µM): 12%
COc1cc(-n2cc3cc(F)cc(C(N)=O)c3n2)cc(Cl)c1C1CC(O)(CCO)Cc2ccccc21 (centres unmarked) — inhibition (enzyme activity, inhibitor; 10 µM): 0.78%
C=CC(=O)Nc1cccc(-c2cnc3[nH]cc(C(=O)NC(C)(C)C)c3n2)c1 — inhibition (enzyme activity, inhibitor; 0.1 µM): 1%
C=C1CCCCCCCCCC(CO)C1=O (centres unmarked) — remaining binding (cell-free assay, competition with immobilised ligand; 10 µM): 100%
Nc1nc(Nc2ccccc2)sc1C(=O)c1ccccc1 — remaining activity (enzyme activity, inhibitor; 10 µM): 71%
CC(C)=CC1OC(C)(C)C2C=C3C(=O)C(Cl)=CC(O)C3C3C(O)C4OC4C(=O)C132 (centres unmarked) — remaining binding (cell-free assay, competition with immobilised ligand; 10 µM): 100%
CNC1C[S+]2CC[S+]3CC[S+](C1)[Ru-4]321([N]=C=S)[n]2c3ccc(OC)cc3c3c4c(c5cc(F)c[n+]1c5c32)C(=O)NC4=O (centres unmarked) — remaining binding (KinomeScan; 0.1 µM; reference: untreated): 0.4%
COCC12C(=O)NC3C4(C(OC)CC1O)C1CC5(O)C(OC)C(O)C(OC(C)=O)(C1C5OC(=O)c1ccccc1)C3(O)C(OC)C24 (centres unmarked) — remaining activity (kinase activity, inhibitor, ProQinase kinase profiling; 25 µM; reference: control): 101% and 94%
O=C(Cc1ccc(OCc2ccccc2)cc1)NC1(C(=O)O)CCN(C(=O)c2ccc(-c3cccc(Cl)c3)cc2)CC1 — activity vs control (enzyme activity, inhibitor; 10 µM): 101%
Cc1cccc(-c2ccc3nc(NC(=O)C4CCCCC4)nn3c2)c1 — remaining activity (enzyme activity, Dundee kinase panel; 10 µM): 99%
CNC(=O)C1CCN(c2cc(C)c(F)cc2NC(=O)c2ccc(-c3cc(O)ccc3C)c(C)c2)CC1 — remaining binding (binding, competition with immobilised ligand; 1 µM): 68%
NC(=O)[C@@H](O)C[C@H]1CCc2sc3ncnc(O[C@H]4CC[C@H](N5CCOCC5)CC4)c3c21 — inhibition (enzyme activity, inhibitor; 10 µM): 11%
CNC(=O)C[C@H](Cc1ccc(C#N)cc1)NC(=O)c1cc(-c2ccc(CN[C@H](C)c3ccc(C)cc3)o2)ccc1Cl — activity vs control (enzyme activity, inhibitor; 1 µM): 100%
Cc1cccc(-c2ccc3nc(NC(=O)C4CCCO4)nn3c2)c1 (centres unmarked) — remaining activity (enzyme activity, Dundee kinase panel; 10 µM): 90%
COc1cc(Nc2nc(C)cc(-c3cnn4nc(OC)ccc34)n2)cc(C(F)(F)F)c1 — remaining activity (inhibitor; 1 µM; reference: control): 100%
CCN1CCN(Cc2ccc(C(=O)Nc3ccc(C)c(NCc4cnc5[nH]ccc5c4OC)c3)cc2C(F)(F)F)CC1 — remaining binding (binding, competition with immobilised ligand; 1 µM): 100%
Cc1[nH]nc2c1N=C(c1ccccc1Cl)c1cnc(N3CCOCC3)cc1N2 — inhibition (enzyme activity, inhibitor; 0.5 µM): -2.9%
C[C@H]1CN(C(=O)c2cn(-c3ccnc(N)n3)c3cc(C#CC4(O)CCCCC4)ccc23)CCN1 — inhibition (enzyme activity, inhibitor, FRET; 1 µM): 0%
Nc1ncc(-c2cc(-c3cnn(CC(F)(F)F)c3)ncc2F)nc1C(=O)NC1CNCC(F)C1 (centres unmarked) — remaining activity (enzyme activity; 1 µM; reference: DMSO control): 37%
CN1CCN(Cc2ccc(NC(=O)c3cccc(C#Cc4cnc(N)c5ncccc45)c3)cc2C(F)(F)F)CC1 — remaining binding (cell-free assay, competition with immobilised ligand; 0.5 µM): 94%
COc1ccc(NC(=O)Nc2ccc3c(c2)C(=O)N(C(C)CO)CC(C)C(CN(C)Cc2ccc4c(c2)OCO4)O3)cc1 (centres unmarked) — remaining binding (binding, competition with immobilised ligand; 10 µM): 87%
CN1CCN(Cc2ccc(-c3ccc(CO[C@H]4CCC[C@@H]4NC(=O)c4cc(-c5cnn(C)c5)cnc4N)cc3)cc2)CC1 — inhibition (enzyme activity, inhibitor; 0.1 µM): 5%
CN1CC[C@@H](COc2cnc(C#N)cc2-c2ccn3nc(NC(=O)C4CC4)cc3c2)C1 — inhibition (enzyme activity, inhibitor; 1 µM): 13%

For quick reference, copied from above:
CN1CC[C@@H](COc2cnc(C#N)cc2-c2ccn3nc(NC(=O)C4CC4)cc3c2)C1 — inhibition (enzyme activity, inhibitor; 1 µM): 13%
O=C(Cc1ccc(OCc2ccccc2)cc1)NC1(C(=O)O)CCN(C(=O)c2ccc(-c3cccc(Cl)c3)cc2)CC1 — activity vs control (enzyme activity, inhibitor; 10 µM): 101%
C[C@H]1CN(C(=O)c2cn(-c3ccnc(N)n3)c3cc(C#CC4(O)CCCCC4)ccc23)CCN1 — inhibition (enzyme activity, inhibitor, FRET; 1 µM): 0%
